# Measured values of several laboratories.
# Lines come from different studies, so protocols differ. ± gives the spread as reported.
Compound,test,system,conditions,endpoint,value
CC(=O)N[C@@H](CC(C)C)C(=O)N[C@H](C(=O)N[C@@H](Cc1ccccc1)C(=O)N[C@]1(C)CCCCCC/C=C/CCC[C@@](C)(C(=O)N[C@@H](C)C(=O)N[C@@H](C)C(=O)N[C@@H](C)C(=O)N[C@@H](C)C(=O)N[C@@H](C)C(=O)N[C@H](C)C(N)=O)NC(=O)[C@H](CC(C)C)NC(=O)[C@H](CCCCNC(=O)CCNC(=O)C[C@@H]2N=C(c3ccc(Cl)cc3)c3c(sc(C)c3C)-n3c(C)nnc32)NC(=O)[C@H](C)NC(=O)[C@H](Cc2c[nH]c3ccccc23)NC(=O)[C@H](Cc2ccc(O)cc2)NC(=O)[C@H](C)NC1=O)[C@@H](C)O,equilibrium dialysis,mouse plasma,"2 µM, 6 h",plasma chamber concentration,920 nM
CCCC[C@H](NC(=O)CN1CCC(NC(=S)Nc2ccc(C[C@H]3CN(CC(N)=O)CCN(CC(N)=O)CCN(CC(N)=O)CCN3CC(N)=O)cc2)CC1)C(=O)N[C@H]1CC(=O)NCCCC[C@@H](C(N)=O)NC(=O)[C@H](Cc2c[nH]c3ccccc23)NC(=O)[C@H](CCCNC(=N)N)NC(=O)[C@@H](Cc2ccccc2)NC(=O)[C@H](Cc2c[nH]cn2)NC1=O,iTLC,mouse serum,"72 h, 37 °C, lead-203-labelled",intact complex,100%
CC(C)C[C@H](NC(=O)[C@@H](N)Cc1ccccc1)C(=O)N[C@@H](C)C(=O)N[C@H]1CSCc2cccc(n2)CSC[C@@H](C(=O)N[C@H](C(=O)NCC(=O)N[C@@H](CO)C(=O)N[C@@H](Cc2c[nH]c3ccccc23)C(=O)N[C@@H](CCCCNC(=O)CN2CCN(CC(=O)O)CCN(CC(=O)O)CCN(CC(=O)O)CC2)C(N)=O)[C@@H](C)O)NC(=O)[C@H](Cc2c[nH]cn2)NC(=O)[C@H]([C@@H](C)O)NC(=O)[C@H](CCC(=O)O)NC(=O)[C@@H]2CCCN2C1=O [gallium-68 labelled],radio-HPLC,fetal bovine serum,"2 h, 37 °C",remaining intact compound,> 99%
CC(C)C[C@H](NC(=O)[C@@H]1CCCN1C(=O)[C@H](CCCCN)NC(=O)[C@@H](N)CO)C(=O)N1CCC[C@H]1C(=O)N[C@@H](CCC(=O)O)C(=O)N[C@H](C(=O)N[C@H](C(=O)N[C@@H](CC(=O)O)C(=O)N[C@@H](CCC(=O)O)C(=O)N[C@@H](Cc1ccc(O)cc1)C(=O)NCC(=O)NCCOCCOCCOCCOCCOCCOCCOCCOCCOCCOCCOCCOCCC(=O)N[C@@H](CCCCNC(=O)CC[C@H](C(=O)O)N1CCN(CC(=O)O)CCN(CC(=O)O)CC1)C(=O)N1CCN(CCCN(C)c2ccc3nccc(C(=O)NCC(=O)N4CC(F)(F)C[C@H]4C#N)c3c2)CC1)[C@@H](C)O)C(C)C [copper-64 labelled],PET,"NMRI nude mouse, HT-1080 hFAP xenograft, tumour","intravenous, maximum tumour uptake",SUVmean,1.6 SUV
N=C(N)NCCC[C@@H]1NC(=O)[C@H](CCCCNC(=O)CCC(NC(=S)Nc2ccc(CC3CN(CC(=O)O)CCN(CC(=O)O)CCN(CC(=O)O)CCN3CC(=O)O)cc2)C(=O)NCCCC[C@@H]2NC(=O)[C@@H](Cc3ccc(O)cc3)NC(=O)[C@H](CC(=O)O)NC(=O)CNC(=O)[C@H](CCCNC(=N)N)NC2=O)NC(=O)[C@@H](Cc2ccc(O)cc2)NC(=O)[C@H](CC(=O)O)NC(=O)CNC1=O (some centres unmarked) [scandium-44 labelled],ex vivo γ-counting,"female athymic nude mice, U-87 MG xenograft, heart","intravenous, 4 h, added: cRGD 50 mg/kg blocking",tissue uptake,0.024 ± 0.006 %ID/g
CC[C@H](C)[C@@H]([C@@H](CC(=O)N1CCC[C@H]1[C@H](OC)[C@@H](C)C(=O)N[C@H](C)[C@@H](O)c1ccccc1)OC)N(C)C(=O)[C@@H](NC(=O)[C@H](C(C)C)N(C)C(=O)OCc1ccc(NC(=O)[C@H](CCCNC(N)=O)NC(=O)[C@@H](NC(=O)CCCCCN2C(=O)CC(SC[C@H](NC(=O)[C@H](CC(=O)O)NC(=O)[C@H](Cc3ccc(O)cc3)NC(=O)[C@H](Cc3c[nH]c4ccccc34)NC(=O)[C@@H](N)CCCNC(=N)N)C(=O)O)C2=O)C(C)C)cc1)C(C)C (some centres unmarked),,"C57BL/6 mouse, healthy, spleen","intraperitoneal, 2.5 mg/kg, 1 h",concentration,not detected
CCCCCCCCCCCCCCC(=O)N[C@@H](CCCCNC(=O)CN1CCN(CC(=O)O)CCN(CC(=O)O)CCN(CC(=O)O)CC1)C(=O)NCCCC[C@@H]1NC(=O)[C@@H](Cc2ccccc2)NC(=O)[C@H](CC(=O)O)NC(=O)CNC(=O)[C@H](CCCNC(=N)N)NC1=O [actinium-225 labelled],,"BxPC-3 xenograft mice, blood","dose not given, end of study",BUN and creatinine levels,no effect
CCCC[C@H](NC(=O)CN1CCC(NC(=O)CN2CCN(CC(N)=O)CCN(CC(N)=O)CCN(CC(N)=O)CC2)CC1)C(=O)N[C@H]1CC(=O)NCCCC[C@@H](C(N)=O)NC(=O)[C@H](Cc2c[nH]c3ccccc23)NC(=O)[C@H](CCCNC(=N)N)NC(=O)[C@@H](Cc2ccccc2)NC(=O)[C@H](Cc2c[nH]cn2)NC1=O [lead-203 labelled],,"male C57BL/6J mice B16-F10 tumour, blood","intravenous, 20 pmol, 2 h",tissue uptake,< 1 %ID/g

# Some of these lines once more:
Compound,test,system,conditions,endpoint,value
CCCCCCCCCCCCCCC(=O)N[C@@H](CCCCNC(=O)CN1CCN(CC(=O)O)CCN(CC(=O)O)CCN(CC(=O)O)CC1)C(=O)NCCCC[C@@H]1NC(=O)[C@@H](Cc2ccccc2)NC(=O)[C@H](CC(=O)O)NC(=O)CNC(=O)[C@H](CCCNC(=N)N)NC1=O [actinium-225 labelled],,"BxPC-3 xenograft mice, blood","dose not given, end of study",BUN and creatinine levels,no effect
